Measured values pooled from the literature.
Numbers after ± are the reported error.
Target: Receptor tyrosine-protein kinase erbB-4 (ERBB4, Homo sapiens, UniProt Q15303)
Chain of UniProt Q15303 (whole entry, looked up): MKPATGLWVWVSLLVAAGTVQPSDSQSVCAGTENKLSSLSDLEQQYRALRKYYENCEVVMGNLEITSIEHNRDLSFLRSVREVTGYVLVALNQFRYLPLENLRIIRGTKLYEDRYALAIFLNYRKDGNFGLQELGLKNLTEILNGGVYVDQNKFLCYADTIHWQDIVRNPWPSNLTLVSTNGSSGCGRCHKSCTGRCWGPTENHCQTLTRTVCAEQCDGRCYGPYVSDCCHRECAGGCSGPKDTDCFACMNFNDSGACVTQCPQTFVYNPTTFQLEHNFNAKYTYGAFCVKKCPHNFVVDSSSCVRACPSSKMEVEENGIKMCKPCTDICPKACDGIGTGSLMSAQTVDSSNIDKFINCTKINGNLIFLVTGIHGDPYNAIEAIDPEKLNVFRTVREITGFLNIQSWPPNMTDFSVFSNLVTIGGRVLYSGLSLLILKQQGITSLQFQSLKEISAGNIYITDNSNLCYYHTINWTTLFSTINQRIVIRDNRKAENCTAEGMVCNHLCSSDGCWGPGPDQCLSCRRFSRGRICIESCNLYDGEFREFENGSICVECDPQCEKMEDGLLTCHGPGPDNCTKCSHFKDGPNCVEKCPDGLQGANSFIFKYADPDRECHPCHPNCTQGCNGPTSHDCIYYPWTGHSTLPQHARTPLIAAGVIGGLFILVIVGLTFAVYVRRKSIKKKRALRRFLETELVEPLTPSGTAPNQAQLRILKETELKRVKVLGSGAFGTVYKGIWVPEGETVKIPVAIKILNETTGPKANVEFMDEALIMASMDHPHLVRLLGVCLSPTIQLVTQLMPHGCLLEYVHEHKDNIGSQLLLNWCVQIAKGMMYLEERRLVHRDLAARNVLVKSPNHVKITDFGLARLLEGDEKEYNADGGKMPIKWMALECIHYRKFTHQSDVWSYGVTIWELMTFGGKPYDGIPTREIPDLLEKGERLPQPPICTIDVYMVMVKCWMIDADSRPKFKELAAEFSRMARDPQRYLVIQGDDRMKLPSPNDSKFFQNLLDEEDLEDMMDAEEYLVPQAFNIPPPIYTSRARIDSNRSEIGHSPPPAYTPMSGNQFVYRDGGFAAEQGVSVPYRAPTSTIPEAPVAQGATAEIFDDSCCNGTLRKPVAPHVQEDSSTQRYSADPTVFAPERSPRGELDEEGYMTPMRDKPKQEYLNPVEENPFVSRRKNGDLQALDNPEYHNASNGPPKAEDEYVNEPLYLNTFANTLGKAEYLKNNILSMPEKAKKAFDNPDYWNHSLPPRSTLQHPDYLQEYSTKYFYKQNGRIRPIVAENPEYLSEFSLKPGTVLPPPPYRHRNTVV

`C=CC(=O)N1CCC([C@@H]2CCNc3c(C(N)=O)c(-c4ccc(Oc5ccccc5)cc4)nn32)CC1` has a remaining activity of 0.1 ± 0.1% (kinase activity, inhibitor, HotSpot radiometric; 100 nM, together with: ATP 10 µM).
The remaining activity of `COc1cc(-c2cncc3c2CN(C)Cc2cc(N4CCNCC4)ccc2-3)cc(OC)c1OC` is reported as 112% (kinase activity; 1 µM, human enzyme, together with: ATP 10 µM; reference: DMSO control).
`COc1ccc(F)cc1C(=O)NCc1ccc(-c2nn([C@@H](C)C(F)(F)F)c(N)c2C(N)=O)cc1` gave a remaining activity of 43% (kinase activity, inhibitor, HotSpot radiometric; 100 nM, together with: ATP 10 µM).
For `COc1cc(F)ccc1-c1ncnc(Nc2cccc(C[S@](C)(=N)=O)c2)n1`, the remaining activity was 93% (kinase activity; 10 µM, together with: 10 µM ATP).
With `O=C1NC(=O)/C(=C/c2ccc(-c3ccc(F)cc3O)o2)S1` the remaining activity was 68% (enzyme activity; 10 µM).
The inhibition of `[2H]c1cc(C)c(NC(=O)c2cnc(Nc3cc(N4CCCCC4)nc(C)n3)s2)c(Cl)c1` is reported as under 30% (0.01 µM).
The remaining activity of `CC#CC(=O)N1CCC[C@H]1c1nc(-c2ccc(C(=O)Nc3ccccn3)cc2)c2c(N)nccn12` is reported as 17.7 ± 0.6% (kinase activity, inhibitor, HotSpot radiometric; 100 nM, together with: ATP 10 µM).
The remaining activity of `C=CC(=O)N1CCC[C@@H](n2nc(-c3ccc(Oc4ccccc4)cc3)c3c(N)ncnc32)C1` is reported as 67.1% (0.1 µM).
For `C=CC(=O)N1CCC(COCC(=O)N2CCN(c3nc(-c4cnc(N)nc4C(F)F)nc(N4CCOC[C@@H]4C)n3)CC2)CC1`, the remaining binding was 100% (KINOMEscan; 1 µM).
With `Cc1cc(Nc2cc(N3CCN(C)CC3)nc(Sc3ccc(NC(=O)C4CC4)cc3)n2)[nH]n1` the remaining activity was 97% (kinase activity, KinaseProfiler; 0.03 µM, species human; reference: control).
The remaining activity of `c1cnc2ccc(Nc3nc(NC4CC4)c4nc[nH]c4n3)cc2c1` is reported as 72% (kinase activity, inhibitor, SelectScreen kinase profiling; 1 µM; reference: control).
